Published values gathered from unrelated publications.
Parts stem from different laboratories: compare values within a part only.

Block 1 — technique: RNA Bind-n-Seq; form: RNA; matrix: in vitro; tested at: not given; baseline: input RNA pool; reading: higher = stronger binding; endpoint: bound/input enrichment
Target: RING finger protein unkempt homolog, zinc fingers 1-6, GST-SBP tag (UNK, Homo sapiens, UniProt Q9C0B0, residues 30-357)
Sequence of UniProt Q9C0B0 (30-357, looked up): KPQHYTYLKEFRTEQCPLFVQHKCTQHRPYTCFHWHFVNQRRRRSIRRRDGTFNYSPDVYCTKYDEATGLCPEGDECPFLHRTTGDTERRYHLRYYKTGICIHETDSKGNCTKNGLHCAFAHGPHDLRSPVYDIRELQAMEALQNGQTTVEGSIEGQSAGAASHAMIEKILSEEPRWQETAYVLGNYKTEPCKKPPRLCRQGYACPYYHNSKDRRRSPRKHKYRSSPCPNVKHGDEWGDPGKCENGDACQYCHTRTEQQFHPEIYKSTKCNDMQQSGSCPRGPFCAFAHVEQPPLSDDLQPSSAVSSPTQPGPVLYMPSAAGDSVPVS
Notes: RNA with constant flanks, human-mouse chimeric sites, ends assumed
All sequences stand within: GGGAGUUCUACAGUCCGACGAUC … CAACAGAGGAUUGAGCAUCA
Strand = AAACAUCUGUCUUUAAGCAUUCCAAGCGAGAAUGCUGGGGUGAUCAUUGUUGCCCAUAUAUAGUAAUACUGAGCUUUAAUGCUGUUCCAUGUUACAUCUUUCCUUCACUCCAGAAUUGUU; value = 0.409 ratio
Strand = GUUGCCAGCUUCCGGUUCCGUUGGGCUCGGUUCUCUCCUGAGCUACGUGUCUCUACGCUCUCAAUCCCGGUUGGGUAAAACAUGGAUGAUCAGGUAAAGUUUGUGGAGCCCAGCCGGCAG; value = 0.121 ratio
Strand = ACCUCCCCCUCCCGCCUCACCCCACCCCCGCUUUUUGGAAAGUUUUUGGCGUUUCUUUUCCUUCCCCAUACAAAGUGGUUUUUACCACCCCCGCAAGGGUCUAUCGAUUCACCCUUCGGA; value = 0.962 ratio
Strand = CUGUGACCACAAGAUCCUGAAGUUUGAGCAGCUGAAGUUGACUCCCUCCCCUUCCCUGAACCCCCCCCCACUGCCCCCCCAUCCCCCAGUGUCGGCUGAGAUGUUGCCUCUGCACGGUUC; value = 0.661 ratio
Strand = AGAAUCUUGGGACUGUUUUACUUAAUUGGUCAUUGAUAGCUUAACAAACAUGGAGAUAAGAUUAGAAAUCUUGACAUCAACAGGUAUCAAGCAGAAAAAACCAUGGCCACGUGUCUCCUG; value = 0.143 ratio
Strand = UCCUGGUCGUGUCCCAGUGCAGGACGAUGUGAACAAAAACUCAAAGCGGCCCUUUCUUUGUAGUUCUUGAUUCUCGAAAUGUGCUAUUAUUGUUUGUCUUUUUUUUUUUUUUUUUAAAGA; value = 1.01 ratio
Strand = AAUAGAGGAUCCACCUCCCAAAGUGCUCUGGAGCUCUGUGUGGCCACCACACCUAACUUGAUGGAUAUAUAUUUUUUUUAAUAUGAAUCUUCCUGUUCGUCCAGGGAAGAAAGAUUUGUU; value = 1.24 ratio
Strand = GGAUCUUUGGGACUGUUUUACUUAAUUGGUCAUUGAUAGCUUAACAAACAUGGAGAUAAGAUUAGAAGUUUUGACAUCAACAGGUAUUAAGCAGAAAAAACCAUGGCCACGUGUCUCCUG; value = 0.486 ratio
Strand = GGAAUUGCUGAUUCAAGUAAGUUUGAGUAUCACAAUGUUAGCUUUCUAAUUCCAUAAAAGUACUUGGUUUUUACAGUAACCCCACAUACAUCACCCCAGCGCCAUUUGUAAAGAGCAACU; value = 0.774 ratio
Strand = UUCAAAGAAAAGGGCAGUUCAUAAAUAUCAUAAGUAACUCUGGGGGAGGGAAAUUCUGUUCUUUUGUUUAAUUUUCCCCCAAAUGAAGCCAAAGUGUGUGUUGAAGAACUGAGAAAAAAU; value = 0.117 ratio
Strand = GUGUCCUGCUUUCAACUUAAAUCACUGCAUUUUUACUACUGUUCUGUGAGCAUCAGGACUGUAGCGCUGUGUCACCACAUGAGAGUUCAGAAGCAGCCUUUCUGUGGAGAGUGAGAAUGA; value = 0.132 ratio

Block 2 — technique: RNA Bind-n-Seq; form: RNA; matrix: in vitro; tested at: 365 nM; baseline: no-protein control; reading: higher = stronger binding; endpoint: RBNS enrichment (R)
Target: RNA binding protein fox-1 homolog 2, RRM domain, GST-SBP tag (RBFOX2, Homo sapiens, UniProt O43251-10, residues 100-194)
Notes: natural RNA segment, single round, ends assumed
All sequences stand within: GGGAGUUCUACAGUCCGACGAUC … UGGAAUUCUCGGGUGCCAA
Target sequence (chain): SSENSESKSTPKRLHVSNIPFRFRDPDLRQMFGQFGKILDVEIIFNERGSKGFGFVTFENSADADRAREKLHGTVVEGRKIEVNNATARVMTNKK
Strand = UAGUGGAGAAAUGGCAUUUUAAGAGGAGUCUCUUCUCAACUUACCUGAGAGUCGAAUUCUUCUCUUCCCUAACCAAUGAAGCUAAGUGGUUAUCCCAGAAACUUGUCUUC; value = 0.327
Strand = CUGUCUUUCAUGGCUGAAAACAAAAGUAAUGGGAAUUUUAAAUACGUUUGCAGAAACUGCCCCUCCCCUCAUUGAGGGUCACUGCUCAAGAGUGCAGGAGUGGACUCUCC; value = 0.478
Strand = AGUCUGCUCUUGUAUUUCUUUCCCUCCCCGAGAAGGGAGGGAGCCACUUUCAGGCCCUCCGGUGUGUUGCCUGGUAGGAUAACUGCUCCAAGCAGCUACCUACCUUGACU; value = 0.157
Strand = AUCUGCUCCAAAGAAAUCUAAGGCCGAUGGUCAGUGAGAGGAAGCUGACUAGCCCCUGGAUUCUUCUCCAGACCCCCCUGCUUCAGGAACACCCGCCAGGGCCCACCCCU; value = 0.301
Strand = AAAUUUUGGAAUCCUCUAAACAUUUUUGUAUCUUUAAUUGUUAUUAUUAAAUCAUGUAAAAGUUCUCAAUAUUUCUGUUUUCAAGCAAAUAUUUCUUGUUUGUAAUUCUU; value = 1.48
Strand = UGCAGAGAGCAAUGAUAGCAAAUAACGUACGAAUGUUUUACAUCAAAGGACAUCCACAUCAGUUGGAAGACUUUGAGUUUUGUUCUUAGGAAACCCACUUUAGUUGAAUG; value = 1.27
Strand = CAACACUUUUGGGGAAGUCUCAUUUUUGCAUUAGGACAUAUUUUAGGUUAAACAAAAGCAUAUUUUAGAAACAGACAAAAGCCAACUGAAAAUCGUGGAUGAAUAGUUAC; value = 0.773
Strand = AUCUAUAUUGAUAUCAGAAAAUACUUGUUUUUUAAAGAUAUAUUGAUGUAUGAUAAAGAUGAUCUAAUUUGUGAAUGCAUAUGUGUGCGUGGUUACUUUUUAUAAUGUGA; value = 0.55
Strand = AGUAUAUUGUCAUGUGAAAGUGUGGAAUGGAAGAAAUGUCGAUCCUGUUGUAACUGAUUGUGAACACUUUUAUGAGCUUUAAAAUAAAGUUCAUCUUAUGGUGUCAUUUC; value = 0.636
Strand = GUAAUUUCAUGGUGGCCUAGUGUUGUGGUGCUUCUGGUAAUGGUAAUAGAAGCUCAACUAUUUUUUUGUGGAUUUCAGUUUUUAUCAUCAGAAGUCCUAGACAGUGACAU; value = 0.329
Strand = GGUGUUAGCGUCGUUUGCCUAGCAUCUGAUUUUCUGAUGUAACCAGGGUUUCACGCUGUUCUUUUCCUCUGAAGUAUGACAUUUCAUUGACACAUUUCGGUCCAGUGUAG; value = 0.303
Strand = AAAAAAACAGUAGUGUUAAAAAUCUUUGUUGUGGUUUGAGCAUCUUUGCUGCUUUUGGAUUGAGAUGGCGAAUCAAGGCUUCACUUCCUCUCUCUUCUGUCUUUAGAAAG; value = 0.367

Block 3 — technique: universal PBM; form: double-stranded DNA, one strand shown; matrix: in vitro; tested at: not given; reading: higher = stronger binding; endpoint: E-score
Target: Sal-like protein 4, full length isoform B (SALL4, Homo sapiens, UniProt Q9UJQ4-2, residues 1-616)
Notes: 8-mer, flanks averaged, mean of replicates
Strand = CCCGCGGG; value = -0.337
Strand = TCAAATGA; value = 0.138
Strand = CTTTAAAG; value = 0.13
Strand = ACTAGCAT; value = -0.024
Strand = CGGTAATC; value = -0.0705
Strand = AGGGCCCA; value = -0.386
Strand = AGATGTCG; value = -0.069
Strand = CTTCAACC; value = -0.0223
Strand = AGATCGTA; value = -0.00513
Strand = CTTTGTGA; value = 0.0114
Strand = CGGTAATA; value = 0.265
Strand = GGGGACAC; value = -0.238
Strand = TCTGAGCA; value = -0.0431
Strand = CATAGTGC; value = 0.148
Strand = CACAATAA; value = 0.303
Strand = CTTGATAC; value = 0.132
Strand = AACCTCTA; value = 0.124
Strand = AGCAGCAA; value = -0.0263
Strand = AGACTAAA; value = 0.0853
Strand = CCAGGGCC; value = -0.43
Strand = GACTCCTC; value = -0.0752
Strand = GAGGCTGC; value = -0.337
Strand = CGCGAACC; value = -0.274
Strand = GCCAACTA; value = -0.0377

Block 4 — technique: protein-binding microarray; form: double-stranded DNA, one strand shown; matrix: in vitro; tested at: not given; reading: higher = stronger binding; endpoint: E-score
Target: Max dimerization protein 1, bHLH-zipper, MAX partner unstated (MXD1, Homo sapiens, UniProt Q05195, residues 56-136)
Notes: k-mer, scored over probes, only values ≥0.25
Residues (chain): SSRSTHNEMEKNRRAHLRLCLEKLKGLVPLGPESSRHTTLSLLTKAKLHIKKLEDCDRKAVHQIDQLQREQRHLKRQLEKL
Strand = TCCATGCA; value = 0.33
Strand = AGCGTGTG; value = 0.348
Strand = GCATGCGA; value = 0.368
Strand = CGTGGCCA; value = 0.295
Strand = CACGGGGG; value = 0.398
Strand = AACGTGGT; value = 0.435
Strand = ACATATGG; value = 0.348
Strand = ACCATGCA; value = 0.396
Strand = CAACACGC; value = 0.367
Strand = ATGCGGCA; value = 0.314
Strand = GCATGTCA; value = 0.343
Strand = CATGTCGC; value = 0.357
Strand = ATCCCATG; value = 0.286
Strand = ACATGTTC; value = 0.306
Strand = AGCATGCA; value = 0.395
Strand = CGTGATCC; value = 0.31
Strand = ACCCCATG; value = 0.401
Strand = TCGGGGCA; value = 0.251
Strand = CGTGTGGA; value = 0.258
Strand = TGTTAACA; value = 0.273
Strand = ATGCCCCG; value = 0.286
Strand = CAACATGA; value = 0.298
Strand = AAGCACGT; value = 0.421
Strand = CACGTTTC; value = 0.401
Strand = ATGCATGC; value = 0.385

Block 5 — technique: protein binding microarray; form: double-stranded DNA, one strand shown; matrix: in vitro; tested at: not given; baseline: not given; reading: higher = stronger binding; endpoint: E-score
Target: Histone acetyltransferase KAT6A, both winged helices, GST fusion (KAT6A, Homo sapiens, UniProt Q92794, residues 1-181)
Notes: 8-mer, flanks averaged, mean of 2 arrays, mostly near background
Residues (chain): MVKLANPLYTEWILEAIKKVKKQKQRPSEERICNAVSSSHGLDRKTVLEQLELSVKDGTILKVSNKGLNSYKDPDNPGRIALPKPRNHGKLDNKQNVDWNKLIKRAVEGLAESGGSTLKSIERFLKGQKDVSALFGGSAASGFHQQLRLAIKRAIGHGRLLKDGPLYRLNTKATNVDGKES
Strand = ACATCCCA; value = -0.162
Strand = CTCTAGAG; value = 0.0309
Strand = AAAATTCC; value = -0.0135
Strand = ATCGGTCA; value = 0.0732
Strand = AGGCCCAC; value = -0.164
Strand = CGTCACTA; value = 0.153
Strand = CCCCTTCC; value = -0.12
Strand = GCCGGCGC; value = 0.386
Strand = CGCAAGCC; value = 0.176
Strand = CTGCGCGA; value = 0.258
Strand = ATAGGGGC; value = -0.163
Strand = TCAAGGAA; value = -0.0257
Strand = CTTACACC; value = -0.00908
Strand = CGTTCTAG; value = -0.0756
Strand = AATATCTG; value = -0.149
Strand = ACATACGT; value = -0.0485
Strand = CTGGCGAA; value = -0.185
Strand = ACGGTTAA; value = 0.132
Strand = CCGCCGTA; value = 0.359
Strand = TCACACGA; value = -0.0846
Strand = ACGCAGTG; value = 0.205
Strand = ACGCTTAT; value = 0.0729
Strand = AGGGCCAC; value = -0.156
Strand = ATTACTTA; value = -0.0841
Strand = AGACCGCA; value = 0.14
